Measurements collected from several papers.
Parts stem from different laboratories: compare values within a part only. Substitutions count along the parent as printed.
Sequence of UniProt Q9C0C9 (whole entry, looked up): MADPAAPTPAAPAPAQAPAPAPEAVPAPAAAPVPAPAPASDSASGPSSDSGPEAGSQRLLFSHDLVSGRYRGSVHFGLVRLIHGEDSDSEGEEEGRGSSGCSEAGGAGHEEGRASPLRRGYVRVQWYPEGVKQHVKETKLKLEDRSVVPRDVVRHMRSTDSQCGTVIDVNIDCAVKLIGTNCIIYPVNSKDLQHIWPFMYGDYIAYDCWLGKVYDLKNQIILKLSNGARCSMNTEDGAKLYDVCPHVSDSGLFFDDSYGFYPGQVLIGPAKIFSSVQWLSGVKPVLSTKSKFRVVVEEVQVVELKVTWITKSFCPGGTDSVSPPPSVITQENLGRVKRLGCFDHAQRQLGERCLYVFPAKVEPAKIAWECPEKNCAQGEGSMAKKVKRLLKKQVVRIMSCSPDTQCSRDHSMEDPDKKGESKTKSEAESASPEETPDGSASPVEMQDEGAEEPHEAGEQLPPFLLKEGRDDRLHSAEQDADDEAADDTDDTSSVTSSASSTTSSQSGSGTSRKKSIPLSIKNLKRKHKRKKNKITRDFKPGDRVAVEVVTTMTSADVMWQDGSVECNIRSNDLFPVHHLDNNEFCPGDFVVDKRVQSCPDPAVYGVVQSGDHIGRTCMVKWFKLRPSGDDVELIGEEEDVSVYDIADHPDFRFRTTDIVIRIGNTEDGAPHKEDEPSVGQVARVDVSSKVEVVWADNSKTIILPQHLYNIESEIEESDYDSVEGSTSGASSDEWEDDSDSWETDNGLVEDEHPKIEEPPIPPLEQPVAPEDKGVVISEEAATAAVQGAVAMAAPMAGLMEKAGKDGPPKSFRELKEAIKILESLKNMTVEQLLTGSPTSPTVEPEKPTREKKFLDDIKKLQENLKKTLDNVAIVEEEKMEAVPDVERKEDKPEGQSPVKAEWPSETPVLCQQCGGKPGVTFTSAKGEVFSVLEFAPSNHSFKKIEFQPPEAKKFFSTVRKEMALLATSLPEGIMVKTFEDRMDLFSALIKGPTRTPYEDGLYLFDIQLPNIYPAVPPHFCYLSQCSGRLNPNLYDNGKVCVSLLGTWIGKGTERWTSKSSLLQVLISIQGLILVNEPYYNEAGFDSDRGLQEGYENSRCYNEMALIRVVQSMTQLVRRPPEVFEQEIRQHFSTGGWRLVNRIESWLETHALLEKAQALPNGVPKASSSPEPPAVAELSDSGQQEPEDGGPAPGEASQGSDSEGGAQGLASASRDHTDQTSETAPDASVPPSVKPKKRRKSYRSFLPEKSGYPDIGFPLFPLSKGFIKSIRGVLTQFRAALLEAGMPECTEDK
Sequence of UniProt P51668 (whole entry, looked up): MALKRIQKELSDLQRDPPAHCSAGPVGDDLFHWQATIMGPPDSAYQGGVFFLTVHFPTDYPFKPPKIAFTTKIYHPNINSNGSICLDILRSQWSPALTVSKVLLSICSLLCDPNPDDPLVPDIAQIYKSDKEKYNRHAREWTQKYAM
Sequence of UniProt Q7Z7E8 (whole entry, looked up): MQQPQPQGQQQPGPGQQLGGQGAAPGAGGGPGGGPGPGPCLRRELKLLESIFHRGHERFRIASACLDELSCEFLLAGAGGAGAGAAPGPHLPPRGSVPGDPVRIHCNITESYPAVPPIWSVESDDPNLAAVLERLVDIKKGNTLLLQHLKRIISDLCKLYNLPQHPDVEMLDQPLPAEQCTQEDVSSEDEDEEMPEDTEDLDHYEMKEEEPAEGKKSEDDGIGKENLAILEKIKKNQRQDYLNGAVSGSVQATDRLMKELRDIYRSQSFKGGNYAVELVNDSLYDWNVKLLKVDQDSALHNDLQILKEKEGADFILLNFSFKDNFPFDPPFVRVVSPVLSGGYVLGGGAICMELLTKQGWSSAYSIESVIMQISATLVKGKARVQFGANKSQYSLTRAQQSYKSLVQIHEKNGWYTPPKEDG
Sequence of UniProt P61081 (whole entry, looked up): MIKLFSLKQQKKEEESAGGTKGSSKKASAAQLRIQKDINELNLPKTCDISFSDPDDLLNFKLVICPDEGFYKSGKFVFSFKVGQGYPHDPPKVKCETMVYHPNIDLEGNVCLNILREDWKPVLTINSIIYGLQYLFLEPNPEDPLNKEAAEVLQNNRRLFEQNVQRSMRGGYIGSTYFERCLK
Sequence of UniProt Q712K3 (whole entry, looked up): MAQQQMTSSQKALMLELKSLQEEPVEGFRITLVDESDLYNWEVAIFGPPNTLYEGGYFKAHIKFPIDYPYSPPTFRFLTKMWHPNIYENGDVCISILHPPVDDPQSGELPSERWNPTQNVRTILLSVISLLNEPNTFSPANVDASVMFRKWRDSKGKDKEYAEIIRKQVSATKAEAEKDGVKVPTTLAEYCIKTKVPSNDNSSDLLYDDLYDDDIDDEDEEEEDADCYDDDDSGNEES
Sequence of UniProt Q16763 (whole entry, looked up): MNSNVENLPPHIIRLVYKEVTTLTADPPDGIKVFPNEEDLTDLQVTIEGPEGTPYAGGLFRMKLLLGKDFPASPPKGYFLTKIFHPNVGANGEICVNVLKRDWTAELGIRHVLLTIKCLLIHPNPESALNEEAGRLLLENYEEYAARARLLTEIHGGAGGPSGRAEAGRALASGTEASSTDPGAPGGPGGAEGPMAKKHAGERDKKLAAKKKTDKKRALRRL
Sequence of UniProt P68036 (whole entry, looked up): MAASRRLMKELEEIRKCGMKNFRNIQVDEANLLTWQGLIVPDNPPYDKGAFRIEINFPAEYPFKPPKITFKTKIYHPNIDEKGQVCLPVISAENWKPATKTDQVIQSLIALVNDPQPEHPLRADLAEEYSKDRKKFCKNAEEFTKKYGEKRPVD
Sequence of UniProt Q969T4 (whole entry, looked up): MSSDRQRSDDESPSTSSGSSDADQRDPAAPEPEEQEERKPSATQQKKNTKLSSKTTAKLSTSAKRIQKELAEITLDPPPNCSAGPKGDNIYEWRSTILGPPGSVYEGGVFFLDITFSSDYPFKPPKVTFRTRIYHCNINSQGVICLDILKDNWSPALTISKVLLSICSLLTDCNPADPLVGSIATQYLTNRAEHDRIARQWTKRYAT
Sequence of UniProt P63146 (whole entry, looked up): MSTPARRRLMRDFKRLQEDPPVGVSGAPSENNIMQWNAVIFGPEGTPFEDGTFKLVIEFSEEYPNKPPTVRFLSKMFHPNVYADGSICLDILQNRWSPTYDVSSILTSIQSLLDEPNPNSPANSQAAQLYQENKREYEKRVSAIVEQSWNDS

Series 1
Target: Sal-like protein 4, full length isoform B (SALL4, Homo sapiens, UniProt Q9UJQ4-2, residues 1-616)
Method: universal PBM
Molecule type: double-stranded DNA, one strand shown
Medium: in vitro
Tested at: not given
Notes: 8-mer, flanks averaged, mean of replicates
Direction: higher = stronger binding
`GGCTGTAA` gave an E-score of -0.0371.
With `AGTGTGAT` the E-score was -0.00376.
The E-score of `CTCTTTGA` is reported as -0.0129.
`TCAAGGGA` has an E-score of -0.0879.
`AGTCGAGC` has an E-score of -0.282.
`TACCCCGA` gave an E-score of -0.127.
`ACAGGGGG` gave an E-score of -0.221.
`ACTGGATC` gave an E-score of -0.138.
With `AATGACGG` the E-score was -0.0614.
`AACTAAAA` has an E-score of 0.247.
`AGCACCCG` gave an E-score of -0.349.
With `AATATTTG` the E-score was 0.443.
For `ACATCAAA`, the E-score was 0.183.
`CGCTATAA` gave an E-score of 0.187.
`CGCTATCC` gave an E-score of -0.0727.
`AAAACCGT` has an E-score of 0.041.
`ACTTTAGC` gave an E-score of -0.0289.
`GTTCAGGA` gave an E-score of -0.121.
For `ACTCGTGC`, the E-score was -0.143.
For `CACTTCGC`, the E-score was -0.0688.
`GGATCCAC` has an E-score of -0.251.
With `ACGACGTC` the E-score was -0.132.
The E-score of `GCGTGAGC` is reported as -0.113.
The E-score of `CCATTTGA` is reported as -0.00333.

Series 2
Target: Histone acetyltransferase KAT6A, winged helix 2, GST fusion (KAT6A, Homo sapiens, UniProt Q92794, residues 85-181)
Method: protein binding microarray
Molecule type: double-stranded DNA, one strand shown
Medium: in vitro
Tested at: not given
Notes: 8-mer, flanks averaged, mean of 2 arrays, mostly near background
Relative to: not given
Direction: higher = stronger binding
Target sequence (chain): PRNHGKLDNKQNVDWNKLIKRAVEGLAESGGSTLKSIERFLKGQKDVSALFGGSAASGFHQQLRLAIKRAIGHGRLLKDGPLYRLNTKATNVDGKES
`CCTCCGGA` has an E-score of 0.133.
`CCTCTAGC` gave an E-score of -0.083.
`ACTTGAAA` gave an E-score of 0.0512.
For `CCATAACC`, the E-score was -0.212.
With `ATTAGAGG` the E-score was -0.0569.
`CAAGATAA` gave an E-score of -0.171.
For `ATGCACGA`, the E-score was -0.0599.
With `TTCCTCAA` the E-score was -0.0364.
With `AATATCCC` the E-score was 0.0108.
`ATCCGCGA` gave an E-score of 0.0639.
The E-score of `AATCTTAG` is reported as 0.0717.
`ATTTCCTA` has an E-score of 0.0985.
`TCTTTGCA` gave an E-score of 0.122.
For `CAAGGCGC`, the E-score was 0.0475.
`GATCCACA` gave an E-score of 0.0264.
For `CCTGATTA`, the E-score was 0.0192.
`AAGTTAAC` has an E-score of 0.0553.
For `CCTAATTC`, the E-score was 0.0166.
`GTGTGAGA` has an E-score of 0.00291.
`CAGGTCAC` has an E-score of -0.0466.
With `CAGCGTTC` the E-score was -0.0836.
`GGGCCTGA` has an E-score of -0.00626.
The E-score of `GATTTACC` is reported as 0.0491.
For `AGCCTTAG`, the E-score was -0.13.

Series 3
Target: CCNB3, cyclin fold, Cln2 fusion (human)
Method: yeast growth competition, sequencing
Medium: yeast
Notes: weak parent motif
Relative to: not given
Direction: higher = stronger binding
Starting sequence: WEE1 docking peptide (human); CTLRQKLIFSPCS
`L7A` — result for “normalised enrichment score”: 0.228.
Under “normalised enrichment score”, `R4A` is recorded as 0.0149.
`P11A` — result for “normalised enrichment score”: 0.275.
`Q5A`: “normalised enrichment score” 0.68.
`I8A` — result for “normalised enrichment score”: 0.556.
Under “normalised enrichment score”, `F9A` is recorded as -0.0389.
For `T2A`, “normalised enrichment score” read 0.263.

Series 4
Molecule: B1 (TRIM38 RING domain)
Method: yeast two-hybrid
Medium: yeast
Notes: mostly zero background
Relative to: not given
Direction: higher = stronger interaction
B1: TRIM38 RING domain (UniProt O00635); chain STKKMMEEATCSICLSLMTNPVSINCGHSYCHLCITDFFKNPSQKQLRQETFCCPQCRAPFHMDSLRP
The “lacZ reporter activity” was 0 (UBE2D1 UBC core domain (UniProt P51668)).
The “lacZ reporter activity” was 0 (UBE2E3 UBC core domain (UniProt Q969T4)).
It gave 0 for “lacZ reporter activity” (UBE2R2 UBC core domain (UniProt Q712K3)).
For UBE2S UBC core domain (UniProt Q16763): “lacZ reporter activity” read 0.
It gave 0 for “lacZ reporter activity” (UBE2O UBC core domain (UniProt Q9C0C9)).
UBE2B UBC core domain (UniProt P63146) — “lacZ reporter activity”: 0.
BIRC6 UBC core domain (UniProt Q9NR09) — “lacZ reporter activity”: 0.
The “lacZ reporter activity” was 0 (UBE2L3 UBC core domain (UniProt P68036)).
UBE2Q1 UBC core domain (UniProt Q7Z7E8) — “lacZ reporter activity”: 0.
For UBE2M UBC core domain (UniProt P61081): “lacZ reporter activity” read 0.

Excerpt of the above (series 2):
`CCTCCGGA` has an E-score of 0.133.
`ATCCGCGA` gave an E-score of 0.0639.
`TCTTTGCA` gave an E-score of 0.122.
With `CAGCGTTC` the E-score was -0.0836.
The E-score of `GATTTACC` is reported as 0.0491.
With `TTCCTCAA` the E-score was -0.0364.
`CAGGTCAC` has an E-score of -0.0466.
`ATTTCCTA` has an E-score of 0.0985.
